Results from different studies.
Numbered parts are unrelated; each lists some results of a single study.
UniProt P00519, sequence (whole entry, unmodified, looked up): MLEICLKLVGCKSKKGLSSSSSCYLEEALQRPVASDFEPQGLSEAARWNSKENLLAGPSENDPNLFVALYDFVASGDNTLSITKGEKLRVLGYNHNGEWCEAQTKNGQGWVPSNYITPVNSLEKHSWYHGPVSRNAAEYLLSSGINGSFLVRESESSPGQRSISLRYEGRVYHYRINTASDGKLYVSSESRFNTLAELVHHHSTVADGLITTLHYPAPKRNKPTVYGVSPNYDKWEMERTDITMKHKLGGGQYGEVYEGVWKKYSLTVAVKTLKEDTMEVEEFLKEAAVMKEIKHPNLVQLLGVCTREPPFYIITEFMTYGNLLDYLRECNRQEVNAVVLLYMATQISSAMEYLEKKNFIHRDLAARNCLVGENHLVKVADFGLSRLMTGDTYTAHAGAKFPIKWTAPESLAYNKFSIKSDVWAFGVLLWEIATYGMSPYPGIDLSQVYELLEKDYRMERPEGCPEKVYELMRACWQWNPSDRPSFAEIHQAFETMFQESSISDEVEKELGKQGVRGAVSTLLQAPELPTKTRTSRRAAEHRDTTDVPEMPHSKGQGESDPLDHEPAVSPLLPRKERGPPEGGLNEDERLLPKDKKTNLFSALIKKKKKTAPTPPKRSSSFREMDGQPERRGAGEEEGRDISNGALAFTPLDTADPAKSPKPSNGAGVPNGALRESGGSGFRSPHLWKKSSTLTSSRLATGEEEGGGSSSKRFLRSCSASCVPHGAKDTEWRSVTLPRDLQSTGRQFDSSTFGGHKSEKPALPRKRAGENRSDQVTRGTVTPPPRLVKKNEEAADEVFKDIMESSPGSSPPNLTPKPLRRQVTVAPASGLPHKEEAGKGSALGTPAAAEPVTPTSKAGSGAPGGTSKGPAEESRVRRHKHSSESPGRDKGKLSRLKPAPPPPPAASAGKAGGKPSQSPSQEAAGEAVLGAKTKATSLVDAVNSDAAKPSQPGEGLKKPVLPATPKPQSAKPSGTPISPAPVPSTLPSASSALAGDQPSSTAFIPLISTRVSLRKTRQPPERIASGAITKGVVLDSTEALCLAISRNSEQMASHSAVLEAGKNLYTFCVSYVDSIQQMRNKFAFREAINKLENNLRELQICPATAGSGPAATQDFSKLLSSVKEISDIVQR
UniProt Q07002, sequence (whole entry, looked up): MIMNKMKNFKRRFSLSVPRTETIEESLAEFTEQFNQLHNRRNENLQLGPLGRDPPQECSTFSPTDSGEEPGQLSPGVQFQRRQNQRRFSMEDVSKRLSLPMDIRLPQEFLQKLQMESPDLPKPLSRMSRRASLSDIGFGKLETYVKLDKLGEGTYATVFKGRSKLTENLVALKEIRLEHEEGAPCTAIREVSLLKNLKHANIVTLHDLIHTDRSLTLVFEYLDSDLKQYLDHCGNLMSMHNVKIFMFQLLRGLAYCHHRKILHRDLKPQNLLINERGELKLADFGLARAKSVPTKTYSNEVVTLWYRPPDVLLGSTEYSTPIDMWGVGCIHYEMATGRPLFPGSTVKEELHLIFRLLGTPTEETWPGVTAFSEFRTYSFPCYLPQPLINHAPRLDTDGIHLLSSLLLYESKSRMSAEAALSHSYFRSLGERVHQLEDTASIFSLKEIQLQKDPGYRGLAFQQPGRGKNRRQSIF
UniProt Q8N5S9, sequence (whole entry, looked up): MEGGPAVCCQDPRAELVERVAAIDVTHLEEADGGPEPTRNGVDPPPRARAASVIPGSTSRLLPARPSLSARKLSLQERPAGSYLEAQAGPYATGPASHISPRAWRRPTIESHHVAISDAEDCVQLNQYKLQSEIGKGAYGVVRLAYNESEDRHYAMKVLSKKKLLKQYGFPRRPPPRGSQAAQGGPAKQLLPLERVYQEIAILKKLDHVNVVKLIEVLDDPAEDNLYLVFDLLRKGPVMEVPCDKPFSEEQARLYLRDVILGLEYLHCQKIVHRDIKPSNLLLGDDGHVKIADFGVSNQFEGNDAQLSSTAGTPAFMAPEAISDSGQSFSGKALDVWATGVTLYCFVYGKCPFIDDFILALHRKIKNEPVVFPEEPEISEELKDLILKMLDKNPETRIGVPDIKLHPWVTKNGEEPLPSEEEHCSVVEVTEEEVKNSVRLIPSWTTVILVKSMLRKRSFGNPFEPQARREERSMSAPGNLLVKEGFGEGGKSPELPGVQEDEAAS
UniProt Q9HBY8, sequence (whole entry, looked up): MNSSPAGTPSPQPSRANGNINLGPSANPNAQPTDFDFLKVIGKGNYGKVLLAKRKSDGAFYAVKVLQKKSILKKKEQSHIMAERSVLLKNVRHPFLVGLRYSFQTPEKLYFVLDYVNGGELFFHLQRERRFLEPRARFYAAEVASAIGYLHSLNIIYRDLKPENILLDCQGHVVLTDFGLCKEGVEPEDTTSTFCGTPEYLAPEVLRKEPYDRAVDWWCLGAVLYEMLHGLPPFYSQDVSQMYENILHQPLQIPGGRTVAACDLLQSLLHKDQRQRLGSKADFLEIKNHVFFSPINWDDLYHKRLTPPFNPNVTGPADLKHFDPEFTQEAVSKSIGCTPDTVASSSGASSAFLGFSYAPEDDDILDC
UniProt O14936, sequence (whole entry, looked up): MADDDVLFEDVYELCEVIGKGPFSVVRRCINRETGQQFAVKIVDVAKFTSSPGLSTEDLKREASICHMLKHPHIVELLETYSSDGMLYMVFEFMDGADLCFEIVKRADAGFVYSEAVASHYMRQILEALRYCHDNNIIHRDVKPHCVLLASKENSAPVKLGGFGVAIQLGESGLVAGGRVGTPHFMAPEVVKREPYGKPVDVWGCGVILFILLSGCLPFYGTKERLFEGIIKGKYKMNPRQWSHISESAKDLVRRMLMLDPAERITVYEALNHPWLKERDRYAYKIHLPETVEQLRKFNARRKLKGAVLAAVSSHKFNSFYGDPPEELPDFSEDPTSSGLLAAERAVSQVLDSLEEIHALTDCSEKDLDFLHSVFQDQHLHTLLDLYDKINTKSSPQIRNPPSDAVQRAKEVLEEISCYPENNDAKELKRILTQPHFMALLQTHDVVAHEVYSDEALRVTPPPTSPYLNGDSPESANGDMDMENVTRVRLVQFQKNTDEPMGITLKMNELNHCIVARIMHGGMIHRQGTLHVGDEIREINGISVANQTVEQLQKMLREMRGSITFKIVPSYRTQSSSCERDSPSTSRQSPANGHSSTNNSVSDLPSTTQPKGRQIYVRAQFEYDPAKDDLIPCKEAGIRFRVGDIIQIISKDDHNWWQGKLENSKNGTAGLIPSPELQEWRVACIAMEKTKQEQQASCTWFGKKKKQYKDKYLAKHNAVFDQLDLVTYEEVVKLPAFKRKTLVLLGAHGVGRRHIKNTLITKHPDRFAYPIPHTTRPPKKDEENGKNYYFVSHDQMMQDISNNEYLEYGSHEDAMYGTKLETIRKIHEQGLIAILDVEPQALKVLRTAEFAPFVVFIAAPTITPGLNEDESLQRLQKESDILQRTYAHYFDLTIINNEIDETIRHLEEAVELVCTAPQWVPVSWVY
UniProt P54646, sequence (whole entry, looked up): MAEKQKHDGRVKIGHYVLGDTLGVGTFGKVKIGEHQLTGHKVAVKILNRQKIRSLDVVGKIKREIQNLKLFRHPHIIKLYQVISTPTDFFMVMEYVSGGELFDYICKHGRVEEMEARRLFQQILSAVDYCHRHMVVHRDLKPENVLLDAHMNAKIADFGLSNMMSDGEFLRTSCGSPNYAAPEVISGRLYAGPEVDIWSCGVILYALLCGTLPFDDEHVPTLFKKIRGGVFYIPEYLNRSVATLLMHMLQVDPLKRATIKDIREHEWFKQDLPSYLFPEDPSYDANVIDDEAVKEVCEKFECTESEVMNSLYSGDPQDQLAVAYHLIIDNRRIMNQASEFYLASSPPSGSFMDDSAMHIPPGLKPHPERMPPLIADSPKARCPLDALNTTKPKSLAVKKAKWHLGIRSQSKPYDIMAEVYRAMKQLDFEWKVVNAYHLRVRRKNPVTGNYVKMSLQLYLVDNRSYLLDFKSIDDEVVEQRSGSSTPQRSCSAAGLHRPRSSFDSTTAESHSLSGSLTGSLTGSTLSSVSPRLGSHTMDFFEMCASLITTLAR

Series 1 — method: RNA Bind-n-Seq; molecule type: RNA; sample: in vitro; concentration: 1 µM; notes: whole 134-nt RNA, ends assumed; with: 150 mM KCl; relative to: input library; reading: higher = stronger binding
Target: Ras GTPase-activating protein-binding protein 1, C-terminal RGG region (G3BP1, Homo sapiens, UniProt Q13283)
UniProt Q13283, sequence (whole entry, looked up): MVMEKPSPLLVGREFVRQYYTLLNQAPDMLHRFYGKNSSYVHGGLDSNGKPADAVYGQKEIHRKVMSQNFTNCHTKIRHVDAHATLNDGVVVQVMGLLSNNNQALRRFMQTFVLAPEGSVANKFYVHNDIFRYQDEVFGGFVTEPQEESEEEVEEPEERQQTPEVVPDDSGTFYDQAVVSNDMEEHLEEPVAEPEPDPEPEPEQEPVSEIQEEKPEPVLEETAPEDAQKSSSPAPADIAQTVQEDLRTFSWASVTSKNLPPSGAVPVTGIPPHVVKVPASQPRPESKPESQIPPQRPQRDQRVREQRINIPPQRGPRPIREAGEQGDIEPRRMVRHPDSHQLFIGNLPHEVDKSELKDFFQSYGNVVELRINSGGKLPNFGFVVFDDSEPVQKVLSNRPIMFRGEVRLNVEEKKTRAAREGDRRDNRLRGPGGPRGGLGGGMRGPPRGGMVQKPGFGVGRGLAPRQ
All sequences stand within: GGGAGUUCUACAGUCCGACGAUC … UGGAAUUCUCGGGUGUCAAGG
Sequence	log2 enrichment
CAAGUCCUGUGCUACACAUCGUAUGUACCGAAUCGGGGAAAGGGGAGGGGUGGGGAAAGUAUUAUGUUACGCCGUUCGGAUCUGCACUUC	3.06
AAGUCCUGUGCUACACAUCGUAUGUACCGAAUCGGGGAGGGGUGGGGUUUUUGGGGAAAGUAUUAUGUUACGCCGUUCGGAUCUGCACUU	1.67
GUCCUGUGCUACACAUCGUAUGUACCGAAUCGGGGCCCCCGGGGCCCCCGGCCCCCGGGAAAGUAUUAUGUUACGCCGUUCGGAUCUGCA	-1.45
UGGGAGACGAUCGCGAUGAACACGGUGCUGUCGCGGGCGAACUCACUGUUCGCCUUCUCGCUGAGCGUGAUGGCGGCGCUCACCUUCGGC	-1.92
ACCAUGCAGGUGGGCAUCUUUGGGAAGUGGGGCAAGGGGGGGAUAGGGAGGGGGGUAACACUUUGGGAACAGGAAAUCCCAGGUCGUUUC	-0.555
CUGUGCUACACAUCGUAUGUACCGAAUCGGGCCCCCCCGGGCCCCCCCGGGCCCCCCCGGGGAAAGUAUUAUGUUACGCCGUUCGGAUCU	-2.43
UCAAGUCCUGUGCUACACAUCGUAUGUACCGAAUCGGGUGGGAAAAAGGGAGGGAAAGUAUUAUGUUACGCCGUUCGGAUCUGCACUUCC	1.72
GUCCUGUGCUACACAUCGUAUGUACCGAAUCGGGGAAAAGGGAAAAGGGGAAAAGGGGAAAGUAUUAUGUUACGCCGUUCGGAUCUGCAC	0.134

Series 2 — method: RNA Bind-n-Seq; molecule type: RNA; sample: in vitro; concentration: not given; relative to: input RNA pool; reading: higher = stronger binding
Target: RING finger protein unkempt homolog, zinc fingers 1-6, GST-SBP tag (UNK, Homo sapiens, UniProt Q9C0B0, residues 30-357)
UniProt Q9C0B0, sequence (30-357, looked up): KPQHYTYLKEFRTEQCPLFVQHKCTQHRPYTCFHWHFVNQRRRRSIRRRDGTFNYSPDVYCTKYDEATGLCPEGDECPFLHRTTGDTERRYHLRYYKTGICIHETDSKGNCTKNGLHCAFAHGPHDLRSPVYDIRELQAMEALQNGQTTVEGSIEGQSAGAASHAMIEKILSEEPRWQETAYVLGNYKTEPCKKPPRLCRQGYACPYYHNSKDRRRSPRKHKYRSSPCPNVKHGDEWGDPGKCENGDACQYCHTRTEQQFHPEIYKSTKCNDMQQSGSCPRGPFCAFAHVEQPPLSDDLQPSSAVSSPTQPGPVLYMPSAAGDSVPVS
Notes: RNA with constant flanks, human and mouse sites, ends assumed
All sequences stand within: GGGAGUUCUACAGUCCGACGAUC … CAACAGAGGAUUGAGCAUCA
Sequence	bound/input enrichment [ratio]
CUAGGAAAGAAGUGGAUGGGAAUUGUAGGCAUAGAUUUCAUAUCAAGGGCAUUUCAAGACAGAAUUUUUAUUUCCUGUAGUAGGCUUGCUGGAGCAAAGGAAAUGUGCUGCUAAAAAUCA	0.92
GGGACGAUUCAUCUCUUUCGAAAGCCACAGAGAUCUUUUUUUGGAAAGUUACUACAGGAAUUUAGACUUGUCGCAGCUGACCGGAGGUCCUGGAAGAUCCUUCUGUUCGGUGCAAUCAAC	0.138
GGGCACAUCCAGCUGAUGAUCCCUGGAGAGUCGGCUUGCUUCGCGUGUGCGCCACCACUUGUAGUUGCUUCAAAUAUUGAUGAAAAAACCCUGAAACGAGAAGGCGUCUGCGCAGCCAGU	0.235
CGAAACAGCAGCAGGUGACGACGGAGAUGAAGUAUUUGUAGAGGCGGAGUCUGAAGGUAUUAGUUCAGAGGCAGGCCUAGAAAUUGAUAGCCAGCAGGAAGAGGAGCCUGUCCAAGCAUC	2.84
UUACUGCACGUCAGUUUUUAUAAGGCACUUCAAGUAGUUUUGUGGAAAGAGAUGAGGUUUUAGUUAGAAUACAAUUGCCUUUUAAUUCAUGUUUUAAGAAAUUAAUGUUAGAAGUAAAAG	2.67
GGGAGGCGUCCUGGGUGGAGGCAGUUCCAACCAGCAGCAGCAAAUACAGCUGCAGCAGUUACAGAUGGAGAAGGAGAGACUGCGGUUGAAACAACAGGAAUUAUUUCGGCAGGAAUUAGC	0.568
GAGAACAGCAACAUACAGGUCCUUUCUGAAAGAUCUGCUACUGAAGUAGACAACAAUUUUAGCAAACCACCUCCGUUUUUCCCUCCAGGAGCUCCUCCCACUCACCUUCCACCUCCUCCA	0.858
GAGAAUCAGGAAUCAUUGAGAUCUCUGGGAGCAUGGAACCUGGAGAAUUUGAGAUCUCCAGAGGAGGUAGACAAGGAAAGUCAAAGGAAUCUGGAAGAGGAAGAGAACCUGGGAAAGGGA	0.511

Series 3 — method: two-hybrid; relative to: out of 4 tests; reading: higher = firmer interaction
Partner: ARF20 484-590 (Arabidopsis thaliana, UniProt Q9C7I9)
B1: ARF6 790-935 (Arabidopsis thaliana, UniProt Q9ZTX8); chain SENPQSNTFVKVYKSGSFGRSLDISKFSSYHELRSELARMFGLEGQLEDPVRSGWQLVFVDRENDVLLLGDDPWPEFVSSVWCIKILSPQEVQQMGKRGLELLNSAPSSNNVDKLPSNGNCDDFGNRSDPRNLGNGIASVGGSFNY
B2: IAA14 (Arabidopsis thaliana, UniProt Q38832); chain MNLKETELCLGLPGGTETVESPAKSGVGNKRGFSETVDLKLNLQSNKQGHVDLNTNGAPKEKTFLKDPSKPPAKAQVVGWPPVRNYRKNVMANQKSGEAEEAMSSGGGTVAFVKVSMDGAPYLRKVDLKMYTSYKDLSDALAKMFSSFTMGSYGAQGMIDFMNESKVMDLLNSSEYVPSYEDKDGDWMLVGDVPWPMFVESCKRLRIMKGSEAIGLAPRAMEKFKNRS
B3: ARF18 482-602 (Arabidopsis thaliana, UniProt Q9C5W9); chain QKKQQTSRSRTKVQMQGIAVGRAVDLTLLKSYDELIDELEEMFEIQGQLLARDKWIVVFTDDEGDMMLAGDDPWNEFCKMAKKIFIYSSDEVKKMTTKLKISSSLENEEYGNESFENRSRG
B4: ARF4 660-788 (Arabidopsis thaliana, UniProt Q9ZTX9); chain QSSSKRICTKVHKQGSQVGRAIDLSRLNGYDDLLMELERLFNMEGLLRDPEKGWRILYTDSENDMMVVGDDPWHDFCNVVWKIHLYTKEEVENANDDNKSCLEQAALMMEASKSSSVSQPDSSPTITRV
B5: IAA13 (Arabidopsis thaliana, UniProt Q38831); chain MITELEMGKGESELELGLGLSLGGGTAAKIGKSGGGGAWGERGRLLTAKDFPSVGSKRAADSASHAGSSPPRSSSQVVGWPPIGSHRMNSLVNNQATKSAREEEEAGKKKVKDDEPKDVTKKVNGKVQVGFIKVNMDGVAIGRKVDLNAHSSYENLAQTLEDMFFRTNPGTVGLTSQFTKPLRLLDGSSEFVLTYEDKEGDWMLVGDVPWRMFINSVKRLRVMKTSEANGLAARNQEPNERQRKQPV
Target sequence (chain): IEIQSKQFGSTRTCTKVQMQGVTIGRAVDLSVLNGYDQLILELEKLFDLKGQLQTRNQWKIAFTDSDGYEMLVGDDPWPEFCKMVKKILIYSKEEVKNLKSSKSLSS
Sequence	positive tests
B1 (ARF6 790-935)	2
B2 (IAA14)	0
B3 (ARF18 482-602)	1
B4 (ARF4 660-788)	0
B5 (IAA13)	0

Series 4 — method: competition with immobilised ligand; concentration: 0.1 µM
Compound: C[C@H](c1ccnc(Nc2nc3ccc(-c4cc(N(C)C)ncn4)cc3[nH]2)c1)N1CCN(C(=O)CC(F)(F)F)CC1
target	observed	remaining binding
Citron Rho-interacting kinase (CIT, Homo sapiens, UniProt O14578)	cell-free assay	78%
SRSF protein kinase 3 (SRPK3, Homo sapiens, UniProt Q9UPE1)	cell-free assay	100%
Cyclin-dependent kinase 18 (CDK18, Homo sapiens, UniProt Q07002)	cell-free assay	89%
Serine/threonine-protein kinase Sgk2 (SGK2, Homo sapiens, UniProt Q9HBY8)	cell-free assay	100%
5'-AMP-activated protein kinase catalytic subunit alpha-2 (PRKAA2, Homo sapiens, UniProt P54646)	cell-free assay	100%
Tyrosine-protein kinase ABL1, non-phosphorylated (ABL1, Homo sapiens, UniProt P00519, F317L)	cell-free assay	100%
Peripheral plasma membrane protein CASK (CASK, Homo sapiens, UniProt O14936)	cell-free assay	100%
Calcium/calmodulin-dependent protein kinase kinase 1 (CAMKK1, Homo sapiens, UniProt Q8N5S9)	cell-free assay	89%
RAC-alpha serine/threonine-protein kinase (AKT1, Homo sapiens, UniProt P31749)	cell-free assay	100%
Dual specificity mitogen-activated protein kinase kinase 7 (MAP2K7, Homo sapiens, UniProt O14733)	cell-free assay	92%
Tyrosine-protein kinase ABL1, phosphorylated (ABL1, Homo sapiens, UniProt P00519, E255K)	binding	97%
Receptor-type tyrosine-protein kinase FLT3 (FLT3, Homo sapiens, UniProt P36888, D835V)	cell-free assay	32%
Cyclin-G-associated kinase (GAK, Homo sapiens, UniProt O14976)	cell-free assay	95%
Mast/stem cell growth factor receptor Kit (KIT, Homo sapiens, UniProt P10721, L576P)	cell-free assay	91%
Tyrosine-protein kinase JAK1, JH1 (JAK1, Homo sapiens, UniProt P23458)	cell-free assay	92%

Mixed results
Compound	host	sample	concentration	time	quantity	result
COC(=O)c1c[nH]c(S(=O)(=O)Cc2csc(Br)c2)n1	mouse	microsomes or S9	2 µM	0.5 h	remaining compound	60.8%
